Assay results from different studies.
Parts stem from different laboratories: compare values within a part only. Positions count from the first letter of the parent shown.

Set 1 — target: UBE2Q1 UBC core domain (UniProt Q7Z7E8); technique: yeast two-hybrid; matrix: yeast; notes: mostly zero background; relative to: not given; reading: higher = stronger interaction
B1: SHPRH RING domain (UniProt Q149N8); chain KTSGGVNPEPCPICARQLGKQWAVLTCGHCFCNECISIIIEQYSVGSHRSSIKCAICRQTTSHKEISY
B2: RNF10 RING domain (UniProt Q8N5U6); chain VRICSHEVPSCPICLYPPTAAKITRCGHIFCWACILHYLSLSEKTWSKCPICYSSVHKKDLKS
B3: MARCHF2 RING domain (UniProt Q9P0N8); chain RLLSTVIRALDTPSDGPFCRICHEGANGECLLSPCGCTGTLGAVHKSCLEKWLSSSNTSYCELCHTEFAVEKRPRPLTEWL
B4: NHLRC1 RING domain (UniProt Q6VVB1); chain MREAEISLLECKVCFEKFGHRQQRRPRNLSCGHVVCLACVAALAHPRTLALECPFCRRACRGCDTSD
B5: TRIM32 RING domain (UniProt Q13049); chain NLDALREVLECPICMESFTEEQLRPKLLHCGHTICRQCLEKLLASSINGVRCPFCSKITRITSLTQ
B6: TRIM47 RING domain (UniProt Q96LD4); chain MDGSGPFSCPICLEPLREPVTLPCGHNFCLACLGALWPHRGASGAGGPGGAARCPLCQEPFPDGLQLR
B7: RNF115 RING domain (UniProt Q9Y4L5); chain TQEQVDMGLECPVCKEDYTVEEEVRQLPCNHFFHSSCIVPWLELHDTCPVCRKSLNGEDSTR
B8: MDM2 RING domain (UniProt Q00987); chain TQDKEESVESSLPLNAIEPCVICQGRPKNGCIVHGKTGHLMACFTCAKKLKKRNKPCPVCRQPIQMIVLTYFP
B9: TRIM2 RING domain (UniProt Q9C040); chain VRQIDKQFLICSICLERYKNPKVLPCLHTFCERCLQNYIPAHSLTLSCPVCRQTSILPEKGV
B10: CBLL1 RING domain (UniProt Q75N03); chain GEKDDTPVHFCDKCGLPIKIYGRMIPCKHVFCYDCAILHEKKGDKMCPGCSDPVQRIEQCT
B11: TRIM34 RING domain (UniProt Q9BYJ4); chain ILLNVQEEVTCPICLELLTEPLSLDCGHSLCRACITVSNKEAVTSMGGKSSCPVCGISYSFEHLQA
Target sequence (chain): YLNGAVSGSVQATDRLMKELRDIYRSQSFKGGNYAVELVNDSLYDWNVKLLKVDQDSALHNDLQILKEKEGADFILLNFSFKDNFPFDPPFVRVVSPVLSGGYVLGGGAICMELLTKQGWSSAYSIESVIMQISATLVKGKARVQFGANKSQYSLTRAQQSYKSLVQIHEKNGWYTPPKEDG
Molecule	lacZ reporter activity
B1 (SHPRH RING domain)	0
B2 (RNF10 RING domain)	0
B3 (MARCHF2 RING domain)	0
B4 (NHLRC1 RING domain)	0
B5 (TRIM32 RING domain)	0
B6 (TRIM47 RING domain)	0
KITELNPHLMCALCGGYFIDATTIVECLHSFCKTCIVRYLETNKYCPMCDVQVHKTRPLL (PCGF2 RING domain (UniProt P35227))	2010
AAQLLEEKLTCAICLGLYQDPVTLPCGHNFCGACIRDWWDRCGKACPECREPFPDGAELR (TRIM65 RING domain (UniProt Q6PJ69))	0
B7 (RNF115 RING domain)	0
VPADASPDSKCPICLDRFDNVSYLDRCLHKFCFRCVQEWSKNKAECPLCKQPFDSIFHSV (TOPORS RING domain (UniProt Q9NS56))	0
B8 (MDM2 RING domain)	0
PLRRLQEEKLCKICMDRHIAVVFIPCGHLVTCKQCAEAVDRCPMCSAVIDFKQRVF (BIRC8 RING domain (UniProt Q96P09))	0
B9 (TRIM2 RING domain)	0
B10 (CBLL1 RING domain)	0
B11 (TRIM34 RING domain)	0

Set 2 — technique: DHFR PCA, deep sequencing; matrix: yeast; with: (+)-ABA 4.8 µM; relative to: wild-type fitted maximum; reading: higher = stronger binding
Target: ABI1, truncated, D143A, DHFR fusion (Arabidopsis thaliana)
Notes: methotrexate growth selection, single substitutions
Parent: PYL1, truncated, DHFR fusion (Arabidopsis thaliana); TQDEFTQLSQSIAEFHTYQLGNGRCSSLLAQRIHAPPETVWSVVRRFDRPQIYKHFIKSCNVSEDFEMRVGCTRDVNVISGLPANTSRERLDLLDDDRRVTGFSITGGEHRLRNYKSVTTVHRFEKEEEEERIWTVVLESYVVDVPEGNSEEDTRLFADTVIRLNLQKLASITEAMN; partner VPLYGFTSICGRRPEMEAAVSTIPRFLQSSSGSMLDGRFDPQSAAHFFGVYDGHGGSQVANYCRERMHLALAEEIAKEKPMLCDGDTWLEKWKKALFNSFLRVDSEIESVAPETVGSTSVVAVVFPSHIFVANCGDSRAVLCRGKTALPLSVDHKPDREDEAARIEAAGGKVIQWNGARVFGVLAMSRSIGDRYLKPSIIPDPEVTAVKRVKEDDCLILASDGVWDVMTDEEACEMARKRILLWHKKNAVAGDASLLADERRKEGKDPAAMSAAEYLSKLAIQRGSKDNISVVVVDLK
Variant	relative binding score [%]
V161M	40.3
G107W	-0.626
E125M	75.4
C60T	49.5
K58L	21
V76I	82.8
I105D	-10.4
Q167P	-2.42
D75T	92.5
I79L	20.1
R88F	65.8
V78Y	65.2
Q10Y	45.4
A84V	17.5
V143Q	-11.8
R74N	-2.66
E128V	61
N165Y	13
L138T	-4.72
D48N	23.9
Q31V	23.7
G21Q	75.4
A170N	-5.8
R111D	-4.79

Set 3 — technique: RNA Bind-n-Seq; molecule type: RNA; matrix: in vitro; concentration: not given; relative to: input RNA pool; reading: higher = stronger binding
Target: RING finger protein unkempt homolog, zinc fingers 1-6, GST-SBP tag (UNK, Homo sapiens, UniProt Q9C0B0, residues 30-357)
Chain of UniProt Q9C0B0 (30-357, looked up): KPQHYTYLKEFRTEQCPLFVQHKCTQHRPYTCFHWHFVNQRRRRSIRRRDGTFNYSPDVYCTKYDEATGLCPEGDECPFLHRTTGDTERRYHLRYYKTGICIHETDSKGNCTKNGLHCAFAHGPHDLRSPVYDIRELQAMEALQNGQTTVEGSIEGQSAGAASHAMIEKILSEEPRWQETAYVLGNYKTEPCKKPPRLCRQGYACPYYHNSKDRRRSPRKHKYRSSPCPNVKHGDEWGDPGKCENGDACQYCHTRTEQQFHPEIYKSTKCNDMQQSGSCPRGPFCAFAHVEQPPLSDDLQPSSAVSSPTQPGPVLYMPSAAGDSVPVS
Notes: RNA with constant flanks, human-mouse chimeric sites, ends assumed
Shared flanks, not repeated: GGGAGUUCUACAGUCCGACGAUC … CAACAGAGGAUUGAGCAUCA
Sequence	bound/input enrichment
UGUAGUUUCUUGAUUUAUCAUUUUUCUCUUUUCUUUCUUUCCUUUAGGAAAAGCCUAAAGAUUAGGUUGUAAGAAAAGAAAAUAGAAUGUUUCGAAGGAAGACCUGUCAGGUAUUUCGUC	0.235 ratio
CUUCGGAAUGCACUACAACCUUUUCUGACAGUGCUUUCCCUCCCAUAGAUCCACGUUCAAGCUCAAAGAGCAAAGGCUUUGCACGGAGCUCAAACAUCUGAUGAAGAAAGAUUUCUGAGA	0.254 ratio
UUAAUCCCCUUUACUGCUCCCCCACUUCUCAUGGUAAUAACAAAGUCUUAUAUCCCCAUAUUAGCUUUCACUCAGAUGGCUUAUGGAGCCGGUUUCCUAGCUUUCUUGGGAGGGAUCAGA	0.275 ratio
UAAAUUAGGGCUGCCGUUUUCUGUUUCUCCCUGGGCUGCAGACAGCUAGAAGAUUUUAUCUAGCUUAUACAAGGCUGCUGGUGUUCCCUCUUUUUUUCCCUCUCUCUGUUUUUGGCUGCA	1.22 ratio
AGAUUCCCCCUCCUGAGACCUCCUCCGAAGUUGGAGUCUCUUACAGAUGCCUCAUCCCCUGUUAGCGUUUUGGUCUGGACCACCCAGCCUUGGACAAUUCCCGCCAACCAGGCAAUUUGC	0.264 ratio
GAACCUGCUCUCUCUGAUGAAGAUGAGGAAGACAAUGAUGAUGUUGAACCCAUUUCUGAAUUUCGAUUUGUGCCUAGUGAUAAGUCAGCAUUGGAGGCGAUGUUCACAGCAAUGUGUGAG	0.346 ratio
GCUCCUCUUCCGCACUCAGCCUGGGGACACUGGGCUGGGACCAGAAUCUUAUUUUUUUUUAAAACUCUCAGUGUAACUGUAUCCCGUGACAUUUCAUUUUUUUUAAAUAGUGUAUUUUUU	12.1 ratio
UUAAUCCCCUUUACUGCUCCCCCACUUCUCAUGGUAAUGACAAAAACUUAUAUCCCCGUCCUAGCUUUUACUCAGAUGGCUUAUGGAGCCGGUUUCCUAGCUUUCUUGGGAGGGAUCAGA	0.847 ratio
AAUUUCCUGUCAUACUUUUUAGACAUUCACAUCAGACGCCUUACUACCCUGGCCACAUUCUAGUUUUGUGUUAUUUCUCAGCUAUGGAUAUGAUCAAAUGAGAACACUGCUUAACUAAUG	0.638 ratio
UUACUUUUGACUCCCUGGGUUAAAUUCCUGUGGGAAUCAUACAGGCAGUGUUUGGACCUUCUUCGAAACAAUUCUAGAGUAGAGCGCCUUUACCAUGAUAUCGCCCAACAAGCUUUCAAA	0.19 ratio
AGCACAACACCAGCUAAGCUCAGGAACCCUUGUACAAGUGAACAAAACUGCACCAGCCCAUUUAGCUACAAAAAUGUGCUUAGUCUUACUGACAGAGGAGAGUUUUUCAAUGAACUUGUU	0.767 ratio

Set 4 — technique: RNA Bind-n-Seq; molecule type: RNA; matrix: in vitro; concentration: 365 nM; relative to: no-protein control; reading: higher = stronger binding
Target: RNA binding protein fox-1 homolog 2, RRM domain, GST-SBP tag (RBFOX2, Homo sapiens, UniProt O43251-10, residues 100-194)
Notes: natural RNA segment, single round, ends assumed
Shared flanks, not repeated: GGGAGUUCUACAGUCCGACGAUC … UGGAAUUCUCGGGUGCCAA
Construct (chain): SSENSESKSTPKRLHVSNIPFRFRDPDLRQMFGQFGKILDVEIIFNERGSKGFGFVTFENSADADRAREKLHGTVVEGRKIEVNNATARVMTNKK
Sequence	RBNS enrichment (R)
UUUUUUAAAGAUAAAACUGCACAGAUGGGAGUGAGAGAUUUACCUCUGCUCCUUCCUCCUUCAGUGCAGCCCCUCUUGGGUGGUUUAUUGGGCAGGAGGCCACCAUCAUU	0.341
UAGUGAGUAGGAGAUUCUGCCUUGUUCUGAUGAGCCUGUGCAGGGGCUCCAGGGGAGCAUGCUGUCCAGGGGGCACAGAAGGGUGGUGAGUGUGAUCAAAUCUAGUCUCA	1.15
UUUUUUUCCUCCUUCAAUCUCAGGCUUUUCUCCAUCUUUUAAGCAGCCUCUGUAACUCCCUUUUGUCCAUAGGUGUUGCGUGCCUCUCAUCUGUGGGGAAGUAUUAUUUA	1.98
GUCUUUUUCUACAGCCAGUAAGGCAGCUCUGUCGUGGUAGCAGAUGGUCCCAUUAUUCUAGGGUCUUACUCUUUGUAUGAUGAAAAGAAUGUGUUAUGAAUCGGUGCUGU	0.574
UACAGGUGGGAUUUCAUGGGUCCAUGUGUUACAAAAAUAAGAAUUGGAGCAUUAACUUGAAAUUGUCUUCAAGGACUUGCUAUGUGCACUUCUUCACACCGGUACAUUCU	0.381
GCGGUGGUGGACCUCACCUUCAAUCCAAGUUUUCAAAGAUAUUUUCUCAAUAACUCUAAAAGGGAGGUGCUUGGGAUUAAGGUGACAGUCCACUUGAUCCUUUUCUUUGU	0.467
ACUCCGACCUUUUUCUUUGAACAUGCAUGCUGCUGGAAUAUGUAUAAAUCAGAACUAGCAGAAGUAGCAGAGUGAUGGGAGCAAAAUAGGCACUGAAUUCGUCAACUCUU	0.497
CCUCUUGUUUUUUGCUGCUGUAACUUACCAGAAAGUGUUCUAUAUUUAUUUCUGUUUGAAUUUGAAACAGUGUUAUGCUUACAAGACUUCAUAAUGAUUUUAUGUCUUGC	1.22
UGAAGCUAGAGUGAACUCAUGUGCCAGCAGAGGCCUCCUCUCUUUAUAGCAAUUCUGACAAUAGGUUUGUUUGUUUGUUUGUUUGUUUUUACAAACUCAAGAAAAACAGA	0.312
GAGGAAGAUCCUUGGUUAGCGAUGAUCUUGGAGGUGGACUAAGUCCAGAGCCAUCCCUGAAGCCAGGUGACUGUCCCAAGGUCUUCCCUCCCGGGAGCCCAACCUUUCGA	0.194
GGAGCUGGGAUUCGGUUCCUUAACUUGAGUCCCAGGGGCAGCUUGGAUGAGAAACAGGCAUCUCCCAGGCUCCAAGCCUAUUUGGAGGUGACACGGUUGAGUGCUUCUGG	0.397
AGCCGUGCAGCACUCGGGAUGUCUGGUUCAGCAGACCCAGGCUUUAUUGGCCAAAGCAUUCUUACAGAACAGUGUCUAAAAGGUCAUUCCCAACCCUUUCUGAUAUUGGC	0.311

Excerpt of the above (set 1):
Molecule	lacZ reporter activity
B7 (RNF115 RING domain)	0
B8 (MDM2 RING domain)	0
B1 (SHPRH RING domain)	0
B6 (TRIM47 RING domain)	0
